Published values of several laboratories.
Protocols differ between the studies behind these lines.
Chain of UniProt P42681 (whole entry, looked up): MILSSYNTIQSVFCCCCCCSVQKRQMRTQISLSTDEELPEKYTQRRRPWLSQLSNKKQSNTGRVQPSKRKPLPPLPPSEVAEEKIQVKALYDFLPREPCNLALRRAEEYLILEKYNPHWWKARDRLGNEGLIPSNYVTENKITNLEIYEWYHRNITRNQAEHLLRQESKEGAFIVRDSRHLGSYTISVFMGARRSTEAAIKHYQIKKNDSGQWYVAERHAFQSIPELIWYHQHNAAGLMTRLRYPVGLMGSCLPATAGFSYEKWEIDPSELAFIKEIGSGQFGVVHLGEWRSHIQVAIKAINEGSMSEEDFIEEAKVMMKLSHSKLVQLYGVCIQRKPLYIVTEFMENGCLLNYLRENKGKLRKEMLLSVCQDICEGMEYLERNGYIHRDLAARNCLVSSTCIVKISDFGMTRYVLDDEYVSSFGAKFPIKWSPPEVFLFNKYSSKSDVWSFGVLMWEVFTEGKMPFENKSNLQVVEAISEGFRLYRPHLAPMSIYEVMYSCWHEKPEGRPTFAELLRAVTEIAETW
Chain of UniProt Q96NX5 (whole entry, looked up): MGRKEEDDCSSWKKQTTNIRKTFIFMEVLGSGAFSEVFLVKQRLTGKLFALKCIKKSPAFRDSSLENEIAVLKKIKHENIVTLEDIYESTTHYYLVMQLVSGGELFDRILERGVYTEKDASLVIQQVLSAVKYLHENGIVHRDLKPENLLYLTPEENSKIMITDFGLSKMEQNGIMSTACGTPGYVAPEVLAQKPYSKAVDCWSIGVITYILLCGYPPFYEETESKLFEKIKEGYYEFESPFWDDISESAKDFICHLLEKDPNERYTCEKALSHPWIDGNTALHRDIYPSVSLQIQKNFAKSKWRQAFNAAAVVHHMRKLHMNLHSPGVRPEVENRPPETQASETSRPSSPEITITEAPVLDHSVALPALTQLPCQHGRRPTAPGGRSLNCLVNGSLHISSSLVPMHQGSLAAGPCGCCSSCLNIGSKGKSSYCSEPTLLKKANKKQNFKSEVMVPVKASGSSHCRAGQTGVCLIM
Chain of UniProt P51582 (whole entry, looked up): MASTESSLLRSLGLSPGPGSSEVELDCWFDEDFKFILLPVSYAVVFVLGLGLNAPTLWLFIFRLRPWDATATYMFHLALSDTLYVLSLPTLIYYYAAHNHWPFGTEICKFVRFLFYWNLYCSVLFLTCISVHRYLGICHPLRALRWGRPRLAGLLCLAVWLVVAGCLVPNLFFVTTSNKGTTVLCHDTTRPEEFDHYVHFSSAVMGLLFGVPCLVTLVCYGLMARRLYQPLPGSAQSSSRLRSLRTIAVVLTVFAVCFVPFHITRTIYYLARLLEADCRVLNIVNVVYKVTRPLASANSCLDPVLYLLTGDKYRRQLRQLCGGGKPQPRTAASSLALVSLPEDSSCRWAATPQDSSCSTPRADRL
Chain of UniProt Q86SQ6 (whole entry, looked up): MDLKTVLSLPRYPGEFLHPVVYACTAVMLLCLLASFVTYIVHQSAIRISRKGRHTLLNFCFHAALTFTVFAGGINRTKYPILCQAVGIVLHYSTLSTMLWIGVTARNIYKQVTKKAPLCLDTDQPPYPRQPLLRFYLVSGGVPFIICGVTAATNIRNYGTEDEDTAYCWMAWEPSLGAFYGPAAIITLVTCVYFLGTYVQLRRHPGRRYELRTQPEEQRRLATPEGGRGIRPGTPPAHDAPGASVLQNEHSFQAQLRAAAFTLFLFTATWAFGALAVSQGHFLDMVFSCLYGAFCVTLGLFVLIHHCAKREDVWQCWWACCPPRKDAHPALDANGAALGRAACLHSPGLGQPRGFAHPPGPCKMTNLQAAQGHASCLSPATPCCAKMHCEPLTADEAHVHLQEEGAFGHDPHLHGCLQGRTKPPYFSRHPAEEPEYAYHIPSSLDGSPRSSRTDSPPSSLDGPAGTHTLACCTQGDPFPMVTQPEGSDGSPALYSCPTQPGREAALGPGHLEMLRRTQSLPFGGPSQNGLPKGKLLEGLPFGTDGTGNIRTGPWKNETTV
Chain of UniProt P49327 (whole entry, looked up): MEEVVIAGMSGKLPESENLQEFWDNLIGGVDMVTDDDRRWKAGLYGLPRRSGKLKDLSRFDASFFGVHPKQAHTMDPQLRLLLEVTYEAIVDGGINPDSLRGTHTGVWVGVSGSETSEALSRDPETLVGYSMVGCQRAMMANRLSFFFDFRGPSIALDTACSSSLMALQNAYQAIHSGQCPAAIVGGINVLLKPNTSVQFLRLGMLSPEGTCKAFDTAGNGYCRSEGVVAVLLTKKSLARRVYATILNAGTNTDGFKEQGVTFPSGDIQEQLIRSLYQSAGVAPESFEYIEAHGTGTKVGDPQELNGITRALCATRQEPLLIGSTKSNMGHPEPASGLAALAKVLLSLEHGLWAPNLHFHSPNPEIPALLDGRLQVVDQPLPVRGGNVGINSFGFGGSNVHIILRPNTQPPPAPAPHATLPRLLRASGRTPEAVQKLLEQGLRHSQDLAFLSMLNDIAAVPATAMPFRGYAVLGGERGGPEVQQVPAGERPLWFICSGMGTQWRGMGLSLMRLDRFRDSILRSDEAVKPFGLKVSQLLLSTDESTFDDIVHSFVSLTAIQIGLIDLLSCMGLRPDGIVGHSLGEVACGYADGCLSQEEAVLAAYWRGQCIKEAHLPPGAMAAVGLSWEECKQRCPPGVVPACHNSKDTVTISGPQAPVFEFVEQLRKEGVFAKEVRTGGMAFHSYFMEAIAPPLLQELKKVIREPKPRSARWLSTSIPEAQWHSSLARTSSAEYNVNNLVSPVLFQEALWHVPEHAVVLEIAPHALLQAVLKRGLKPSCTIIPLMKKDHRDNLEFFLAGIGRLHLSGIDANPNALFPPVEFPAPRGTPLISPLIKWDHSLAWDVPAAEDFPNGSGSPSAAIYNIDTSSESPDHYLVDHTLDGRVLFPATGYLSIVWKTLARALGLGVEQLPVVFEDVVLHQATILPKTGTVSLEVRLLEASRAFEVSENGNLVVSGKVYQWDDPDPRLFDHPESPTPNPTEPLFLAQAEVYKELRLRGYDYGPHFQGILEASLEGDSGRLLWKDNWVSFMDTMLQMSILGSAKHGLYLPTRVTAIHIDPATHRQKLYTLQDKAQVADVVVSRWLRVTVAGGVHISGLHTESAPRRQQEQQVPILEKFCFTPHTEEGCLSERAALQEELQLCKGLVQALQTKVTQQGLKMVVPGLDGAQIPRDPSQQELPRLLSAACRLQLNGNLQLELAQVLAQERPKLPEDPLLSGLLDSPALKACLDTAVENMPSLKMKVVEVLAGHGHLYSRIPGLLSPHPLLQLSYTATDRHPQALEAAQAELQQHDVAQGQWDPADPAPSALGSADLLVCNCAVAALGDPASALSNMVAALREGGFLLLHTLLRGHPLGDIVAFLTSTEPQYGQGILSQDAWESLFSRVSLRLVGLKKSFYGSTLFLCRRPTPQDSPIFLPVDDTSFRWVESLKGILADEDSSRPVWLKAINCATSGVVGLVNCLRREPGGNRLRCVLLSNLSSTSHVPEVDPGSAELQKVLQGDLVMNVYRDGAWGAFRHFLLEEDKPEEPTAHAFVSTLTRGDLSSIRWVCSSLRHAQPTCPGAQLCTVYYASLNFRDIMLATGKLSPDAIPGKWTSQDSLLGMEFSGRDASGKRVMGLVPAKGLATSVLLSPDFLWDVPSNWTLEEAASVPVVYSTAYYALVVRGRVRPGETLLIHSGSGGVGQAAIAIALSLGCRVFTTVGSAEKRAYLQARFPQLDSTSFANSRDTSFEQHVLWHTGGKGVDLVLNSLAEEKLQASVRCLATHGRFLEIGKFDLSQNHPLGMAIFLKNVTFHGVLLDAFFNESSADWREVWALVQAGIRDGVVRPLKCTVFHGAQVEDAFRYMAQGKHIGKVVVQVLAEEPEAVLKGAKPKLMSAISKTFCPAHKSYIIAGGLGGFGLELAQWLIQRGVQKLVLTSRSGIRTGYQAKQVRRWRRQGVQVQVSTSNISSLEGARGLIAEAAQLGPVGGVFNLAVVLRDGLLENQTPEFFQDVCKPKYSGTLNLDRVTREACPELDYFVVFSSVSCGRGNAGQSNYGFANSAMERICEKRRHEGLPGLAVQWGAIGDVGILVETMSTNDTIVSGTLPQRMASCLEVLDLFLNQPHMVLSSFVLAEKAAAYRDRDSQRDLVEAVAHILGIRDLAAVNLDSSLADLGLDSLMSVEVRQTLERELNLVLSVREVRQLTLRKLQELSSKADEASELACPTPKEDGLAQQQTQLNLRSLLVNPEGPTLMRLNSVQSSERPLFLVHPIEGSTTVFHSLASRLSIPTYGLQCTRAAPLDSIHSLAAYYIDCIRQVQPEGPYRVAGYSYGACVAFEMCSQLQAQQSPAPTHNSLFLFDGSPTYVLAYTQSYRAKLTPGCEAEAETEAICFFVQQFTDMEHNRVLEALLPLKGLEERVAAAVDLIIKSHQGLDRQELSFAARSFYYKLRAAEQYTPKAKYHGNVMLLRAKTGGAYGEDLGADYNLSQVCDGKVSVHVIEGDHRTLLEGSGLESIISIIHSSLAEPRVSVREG
Chain of UniProt P43403 (whole entry, looked up): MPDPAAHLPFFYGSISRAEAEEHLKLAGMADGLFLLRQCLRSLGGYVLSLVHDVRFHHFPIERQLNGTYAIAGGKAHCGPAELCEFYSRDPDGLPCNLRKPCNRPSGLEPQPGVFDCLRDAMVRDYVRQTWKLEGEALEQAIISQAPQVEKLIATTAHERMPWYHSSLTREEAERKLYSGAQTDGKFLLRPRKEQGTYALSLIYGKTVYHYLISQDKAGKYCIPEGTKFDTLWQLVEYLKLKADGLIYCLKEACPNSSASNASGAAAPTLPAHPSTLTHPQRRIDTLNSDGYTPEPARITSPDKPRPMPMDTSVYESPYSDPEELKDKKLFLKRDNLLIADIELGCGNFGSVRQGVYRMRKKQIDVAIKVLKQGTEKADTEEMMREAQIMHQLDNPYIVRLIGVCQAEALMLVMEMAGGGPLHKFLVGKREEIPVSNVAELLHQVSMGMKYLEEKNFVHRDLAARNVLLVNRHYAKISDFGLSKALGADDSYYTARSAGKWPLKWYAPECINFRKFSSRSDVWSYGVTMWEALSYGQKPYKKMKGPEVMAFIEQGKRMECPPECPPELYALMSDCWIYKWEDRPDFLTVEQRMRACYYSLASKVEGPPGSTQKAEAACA

SMILES	target or system	test	test system	conditions	how to read	endpoint	result
O=C(c1ccc(Cl)cc1)N1CCN2C(=O)N(OC(=O)N3CCOc4ccccc43)C(=O)C2C1 (stereo not drawn)	Fatty acid synthase (FASN, Homo sapiens, UniProt P49327)	MS-based ABPP	SW-620 conditioned medium	10 µM, 1 h, 37 °C	baseline: compound over DMSO, lower = more inhibition	mean protein ratio	0.98
Nc1ncnc2c1ncn2[C@@H]1O[C@H](C[C@@H](N)CC[C@H](N)C(=O)O)[C@@H](O)[C@H]1O	Genome polyprotein, NS5 methyltransferase domain (Zika virus, UniProt Q32ZE1)	NS5 enzyme activity, inhibitor	–	25 µM	–	inhibition	87.3%
O=C(Nc1cccnn1)N1CCC(=Cc2cccc(Oc3ccc(C(F)(F)F)cn3)c2)CC1	ZAP70 (Homo sapiens, UniProt P43403)	kinase activity, inhibitor	–	50 µM, human, with: poly(Glu,Tyr)	–	inhibition	-8%
CN1CCN(c2cc(-c3ccncc3)c(-c3ccc4ccccc4c3)nn2)CC1	P2Y purinoceptor 4 (P2RY4, Homo sapiens, UniProt P51582)	antagonist, FLIPR	–	10 µM	–	inhibition	0.1%
Oc1ccc2c3c1O[C@H]1[C@@H](O)CC[C@@]4(O)[C@@H](C2)N(CC2CCC2)CC[C@]314	Adhesion G protein-coupled receptor A1 (ADGRA1, Homo sapiens, UniProt Q86SQ6)	β-arrestin recruitment, TANGO luminescence, measured: GPR123	–	concentration not given	baseline: basal luminescence	log2 fold change	0.016
CN(C(=O)n1cnc(-c2ccc[n+]([O-])c2)c1)C1CCCCC1	CXCR4 (Homo sapiens, UniProt P61073)	radioligand binding, inhibitor	–	10 µM	–	inhibition	7%
CCCC[C@H]1C(=O)N(C)[C@@H](CCCC)C(=O)N[C@@H](CCCNC(=O)CN2CCN(CC(=O)O)CCN(CC(=O)O)CCN(CC(=O)O)CC2)C(=O)N[C@H](C(=O)NCC(N)=O)CSCC(=O)N[C@@H](Cc2ccc(O)cc2)C(=O)N(C)[C@@H](C)C(=O)N[C@@H](CC(N)=O)C(=O)N2CCC[C@H]2C(=O)N[C@@H](Cc2c[nH]cn2)C(=O)N[C@@H](CC(C)C)C(=O)N2C[C@H](O)C[C@H]2C(=O)N[C@@H](Cc2c[nH]c3ccccc23)C(=O)N[C@@H](CO)C(=O)N[C@@H](Cc2cn(C)c3ccccc23)C(=O)N1C [lutetium-177 labelled]	–	radio-HPLC	mouse serum	24 h, 37 °C	–	radiochemical purity	> 97%
CCCCCCCC/C=C\CCCCCCCC(=O)NCCO	human coronavirus OC43	virus-induced cell killing	MRC-5	screen	–	maximum inhibition	18.2%
COc1cc(Nc2ncc(F)c(Nc3ccc4c(n3)NC(=O)C(C)(C)O4)n2)cc(OC)c1OC	MAPK14 (Homo sapiens, UniProt Q16539)	KINOMEscan	–	10 µM, p38-alpha	–	inhibition	5%
COc1cccc(C(=O)Nc2ccc3c(c2)B(O)OC3)c1	Genome polyprotein, NS2B-NS3 protease (dengue virus type 2, UniProt P29990)	enzyme activity, FRET	dengue virus serotype 2	50 µM, with: substrate 50 µM	–	inhibition	≤ 10%
O=C(Nc1cnccc1Cl)N1CCN(Cc2ccc3c(c2)OC(F)(F)O3)CC1	RXRA (Homo sapiens, UniProt P19793)	radioligand binding, inhibitor	–	10 µM, human, with: [3H]9-cis-retinoic acid	–	inhibition	8%
O=[N+]([O-])c1ccc2c(c1)B(O)OC2	Genome polyprotein, NS2B-NS3 protease (dengue virus type 2, UniProt P29990)	enzyme activity, FRET	dengue virus serotype 2	50 µM, with: substrate 50 µM	–	inhibition	≤ 10%
[2H]c1c([2H])c([C@]2([2H])CCCN2C(=O)C(C)(C)Oc2ccc3cn[nH]c3c2)c([2H])c([2H])c1C([2H])([2H])[2H]	CAMK1G (Homo sapiens, UniProt Q96NX5)	KINOMEscan	–	1 µM	baseline: DMSO control	remaining binding	92%
Nc1ccc2c(c1)B(O)OC2	Genome polyprotein, NS2B-NS3 protease (West Nile virus, UniProt P06935)	enzyme activity, FRET	–	50 µM, with: substrate 50 µM	–	inhibition	≤ 10%
COc1ccc(N2C(=O)N(c3c(C)cccc3Cl)Cc3cnc(Nc4ccc(C5CCN(C)CC5)cc4OC)nc32)nc1	TXK (Homo sapiens, UniProt P42681)	kinase activity	–	0.5 µM	–	inhibition	96%
